Experimental data pooled from the literature.
A part holds a random share of what one study measured. Changes are numbered by the printed parent chain.

Block 1
Target: CCND1, cyclin fold, Cln2 fusion (human)
Technique: yeast growth competition, sequencing
Medium: yeast
Notes: weak parent motif
Baseline: not given
Reading: higher = stronger binding
Starting sequence: ORC1 docking peptide (human); PRARKRLELGNLG; partner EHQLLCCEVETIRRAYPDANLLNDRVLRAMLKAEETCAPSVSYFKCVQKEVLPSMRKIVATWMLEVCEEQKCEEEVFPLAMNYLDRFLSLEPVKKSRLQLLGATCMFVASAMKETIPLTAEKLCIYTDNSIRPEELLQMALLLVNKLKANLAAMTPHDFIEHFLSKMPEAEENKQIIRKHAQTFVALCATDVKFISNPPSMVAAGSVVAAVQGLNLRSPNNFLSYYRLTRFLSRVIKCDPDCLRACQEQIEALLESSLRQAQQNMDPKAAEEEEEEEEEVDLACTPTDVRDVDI
Under “normalised enrichment score”, `R6I` is recorded as 0.33.
For `L7E`, “normalised enrichment score” read -0.0974.
`E8Y`: “normalised enrichment score” -0.238.
`E8F` — result for “normalised enrichment score”: 0.289.
`G10H`: “normalised enrichment score” -0.439.
`G13V` — result for “normalised enrichment score”: -0.401.
`G13Y`: “normalised enrichment score” -0.206.
`L9T`: “normalised enrichment score” -0.617.
`L7P` — result for “normalised enrichment score”: -1.11.
`K5R L9F` — result for “normalised enrichment score”: 2.44.
`N11E`: “normalised enrichment score” -0.288.
`R4E`: “normalised enrichment score” 0.36.
`N11W`: “normalised enrichment score” 0.366.
Under “normalised enrichment score”, `R6L` is recorded as 0.523.
`G10A`: “normalised enrichment score” -0.205.
`A3D` — result for “normalised enrichment score”: 0.0319.
Under “normalised enrichment score”, `E8H` is recorded as -0.765.
For `L12K`, “normalised enrichment score” read -0.221.
For `R4I`, “normalised enrichment score” read -0.513.
`G10T`: “normalised enrichment score” -0.611.
`N11G` — result for “normalised enrichment score”: 0.145.
`R4H` — result for “normalised enrichment score”: 0.452.
`R2I` — result for “normalised enrichment score”: 0.477.
For `R4Y`, “normalised enrichment score” read 0.22.
Under “normalised enrichment score”, `E8I` is recorded as 0.145.

Block 2
Target: RNA binding protein fox-1 homolog 2, RRM domain, GST-SBP tag (RBFOX2, Homo sapiens, UniProt O43251-10, residues 100-194)
Technique: RNA Bind-n-Seq
Molecule type: RNA
Medium: in vitro
Concentration: 365 nM
Notes: natural RNA segment, single round, ends assumed
Baseline: no-protein control
Reading: higher = stronger binding
Target sequence (chain): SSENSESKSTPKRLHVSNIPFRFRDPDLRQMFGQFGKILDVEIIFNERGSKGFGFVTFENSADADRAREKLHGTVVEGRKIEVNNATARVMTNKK
For `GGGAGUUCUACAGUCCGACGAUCCUCCCUGGGGCCCCAGGAUCCACCUAACUGGCCUGGCACCUGGUGCCACGUGCUGCUGCCGCCAGGAUAUGCGCCUUCCCACAGGUGCCCUGCCUGAGUUGUGUGCAUCCUGGAAUUCUCGGGUGCCAA`, “RBNS enrichment (R)” read 0.304.
For `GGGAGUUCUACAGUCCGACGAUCUAGGUUGUACGUCAUUCUCGAUGUUUAACAUGAGAAGCAAGGAAGGCAUGAUUUUUAUCAGUGAUUUAUAUUGGGAAUGAAAACCGUUCCUGCCUCCUCCCAAGGGAAGGUGGAAUUCUCGGGUGCCAA`, “RBNS enrichment (R)” read 0.957.
For `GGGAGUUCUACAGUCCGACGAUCAAAGGGUAGGAGUGCACAUAGGAUAAGACACAUUCCAAAAUCAGGGCCUCCCUGUUUUUUCCUACUCAUCCCUGGCUCCUACAAGGGAAAGUGCAGGCUUUGGGAGCAGGUGGAAUUCUCGGGUGCCAA`, “RBNS enrichment (R)” read 0.511.
`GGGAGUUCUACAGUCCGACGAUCAGCUUUUUGCGGGUACAGAGCAGGCUUUGGGGGGUAACCAGCUAGCUGCUGCUAGGCCUUUAUUCCCAGGGUUUGGCUGCAUUGGCAGUGAGGCAGGUGGCUGGGGGUGAUGGAAUUCUCGGGUGCCAA`: “RBNS enrichment (R)” 0.321.
For `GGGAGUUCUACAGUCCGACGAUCUUUUAUGCAGUAGGCAUUACUACAGUACAUGGCUAAUCUUCCCAAAAACUAGCUCAUUAAAGAUGAAAUAGACCAGCUCUCUUCAGUGAAGAGGACAAAUAGUUUAUUUAUGGAAUUCUCGGGUGCCAA`, “RBNS enrichment (R)” read 0.277.
`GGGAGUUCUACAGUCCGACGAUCGGAGAGUGGCUGGAUGGCUUUGGCUGCCCUGUAGCCUACCUGUGGCAGCAUACUGUGCCAGCCAUGCACUGUAUUAGGGAGGGGGAUGUCAACAGCCUUGGUUGAGGUGGUGGAAUUCUCGGGUGCCAA` — result for “RBNS enrichment (R)”: 0.643.
`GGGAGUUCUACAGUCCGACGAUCAAUGCAUGUUUUGAGAUGUUUGGAGAUUCAGCAAUUCUGUCUUCAUUGCUCCAGGAUCUGGUAUACUGUUCUCAUAAAACUGAGAGGAGAAAAAAAGUGAAAGAAAGCAGUGGAAUUCUCGGGUGCCAA` — result for “RBNS enrichment (R)”: 15.1.
`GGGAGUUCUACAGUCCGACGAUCCCAUCUGUGUCCAGCGGCCCCGGCUCCAGCCCAGCCAGCACUCUGCAGGGUCACACGCACCGUGUCCCCACCCAGGACAGCAGACACCCGCCAGAGUGUGCGCGCCCAGUUGGAAUUCUCGGGUGCCAA`: “RBNS enrichment (R)” 0.351.

Block 3
Target: Fragile X messenger ribonucleoprotein 1, C-terminal low-complexity region (Fmr1, Mus musculus, UniProt P35922)
Technique: RNA Bind-n-Seq
Molecule type: RNA
Medium: in vitro
Concentration: 200 nM
Notes: whole 134-nt RNA, ends assumed
With: 150 mM KCl
Baseline: input library
Reading: higher = stronger binding
For `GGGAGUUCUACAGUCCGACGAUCGUCCUGUGCUACACAUCGUAUGUACCGAAUCGGAAAAAGGGGAAAAAGGGGAAAAAGGAAAGUAUUAUGUUACGCCGUUCGGAUCUGCACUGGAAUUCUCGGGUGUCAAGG`, the log2 enrichment was -0.101.
With `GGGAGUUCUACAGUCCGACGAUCUCAAGUCCUGUGCUACACAUCGUAUGUACCGAAUCGGGAAGGGGAAGGGGAAGGAAAGUAUUAUGUUACGCCGUUCGGAUCUGCACUUCCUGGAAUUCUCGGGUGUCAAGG` the log2 enrichment was 0.0373.
With `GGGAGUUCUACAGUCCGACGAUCUGGGAGGUGGAUUUUGUUUAUUUUUUUAGCUCAUUUCCAGGGGUGGGAAUUCUUUUUUAAUAUGUGUCAUGAAUAAAGUUGUUUUUGAAAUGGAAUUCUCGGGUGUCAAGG` the log2 enrichment was 0.197.
With `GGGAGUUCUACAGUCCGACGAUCGUCCUGUGCUACACAUCGUAUGUACCGAAUCAAAUUUAAAUUUUUUUAAACCCCCAAAAAAGUAUUAUGUUACGCCGUUCGGAUCUGCACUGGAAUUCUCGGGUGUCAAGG` the log2 enrichment was 0.142.
With `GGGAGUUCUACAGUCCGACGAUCUGGCACUGGUGGCAUGCGGGGAGGAAGAGGUGGCCUCAUGGAUCGUGGUGGUCCCGGUGGAAUGUUCAGAGGUGGCCGUGGUGGAGACAGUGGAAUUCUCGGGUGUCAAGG` the log2 enrichment was 0.283.
`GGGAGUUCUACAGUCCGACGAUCCUCAAGUCCUGUGCUACACAUCGUAUGUACCGAAUCGGGAAGGAAGGGAAGGGGAAAGUAUUAUGUUACGCCGUUCGGAUCUGCACUUCCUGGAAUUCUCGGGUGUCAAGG` has a log2 enrichment of 0.292.
With `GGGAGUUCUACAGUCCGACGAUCCACAGACAACACGCACCCACACAGACACAGAGGGAAGGGGUUGGGAUGGGGACAGGGUGCACAGCAGGGCGGGGUAGGACCCCAGCACCUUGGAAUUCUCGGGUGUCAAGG` the log2 enrichment was 1.17.
`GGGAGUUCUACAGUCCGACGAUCUCCUGUGCUACACAUCGUAUGUACCGAAUCGGGGAAAGGGGUUUUUUUGGGGAAAGGGGAAAGUAUUAUGUUACGCCGUUCGGAUCUGCAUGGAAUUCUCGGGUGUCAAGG` gave a log2 enrichment of 0.723.
With `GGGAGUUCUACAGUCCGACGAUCACCAUGCAGGUGGGCAUCUUUGGGAAGUGGGGCAAGGGUGGGAUAGGGAGGGGGGUAACACUUUGGGAACAGGUGGUCCCAGGUCGUUUCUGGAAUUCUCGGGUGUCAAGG` the log2 enrichment was 0.7.

Block 4
Target: Histone acetyltransferase KAT6A, winged helix 1, GST fusion (KAT6A, Homo sapiens, UniProt Q92794, residues 1-85)
Technique: protein binding microarray
Molecule type: double-stranded DNA, one strand shown
Medium: in vitro
Concentration: not given
Notes: 8-mer, flanks averaged, mean of 2 arrays, mostly near background
Baseline: not given
Reading: higher = stronger binding
Residues (chain): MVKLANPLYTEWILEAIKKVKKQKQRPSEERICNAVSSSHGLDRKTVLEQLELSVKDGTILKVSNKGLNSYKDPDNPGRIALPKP
`CAAGCCGG` gave an E-score of 0.167.
`CACCCGCC` has an E-score of 0.342.
The E-score of `AAGAGGAG` is reported as -0.147.
`ACCCTCTC` has an E-score of -0.19.
With `AGTTAACG` the E-score was 0.0425.
`CGCAGCTA` gave an E-score of 0.0682.
`ACAGGACC` has an E-score of 0.0596.
With `CGCTCCGA` the E-score was 0.222.
With `CTACCAGC` the E-score was -0.042.
`ACCCCACG` has an E-score of -0.0717.
For `CCGATGTA`, the E-score was 0.112.
`CGTTGGGC` gave an E-score of 0.0803.
For `TCCTTCGA`, the E-score was -0.0649.
For `ACGGACCC`, the E-score was 0.235.
`AGTCTTTG` gave an E-score of -0.304.
For `GCCACCAA`, the E-score was 0.0102.
`CTGCCATA` gave an E-score of 0.0797.
The E-score of `ACAGAGCC` is reported as 0.112.
With `GGGCGGTA` the E-score was 0.33.
`CTCGGCCC` gave an E-score of 0.142.
`GAGACATC` gave an E-score of -0.0466.

Repeated from above (block 1):
`R4H` — result for “normalised enrichment score”: 0.452.
`R2I` — result for “normalised enrichment score”: 0.477.
For `R4Y`, “normalised enrichment score” read 0.22.
Under “normalised enrichment score”, `E8I` is recorded as 0.145.
